# Published values pooled from the literature.
# Every numbered part comes from another study and shows a few of its results, in no order.

# Sample 1
# Target: RING finger protein unkempt homolog, zinc fingers 1-6, GST-SBP tag (UNK, Homo sapiens, UniProt Q9C0B0, residues 30-357)
# Method: RNA Bind-n-Seq
# Molecule type: RNA
# Medium: in vitro
# Concentration: not given
# Setting: RNA with constant flanks, human-mouse chimeric sites, ends assumed
# Reference: input RNA pool
# Direction: higher = stronger binding
# Constant ends, left off below: GGGAGUUCUACAGUCCGACGAUC … CAACAGAGGAUUGAGCAUCA
# Construct (chain): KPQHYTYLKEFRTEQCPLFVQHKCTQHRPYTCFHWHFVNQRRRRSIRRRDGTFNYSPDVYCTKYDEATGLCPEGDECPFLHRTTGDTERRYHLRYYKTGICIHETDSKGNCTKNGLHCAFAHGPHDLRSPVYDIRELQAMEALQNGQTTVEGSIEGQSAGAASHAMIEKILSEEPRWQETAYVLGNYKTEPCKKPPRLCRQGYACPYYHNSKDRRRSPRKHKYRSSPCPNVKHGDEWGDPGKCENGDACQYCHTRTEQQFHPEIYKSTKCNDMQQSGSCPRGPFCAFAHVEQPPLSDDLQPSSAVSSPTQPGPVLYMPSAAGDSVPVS
Strand,bound/input enrichment [ratio]
UGGGCACUCUAUCAGAUAGAUUACUUUUUUAAUGUAGAUGUAAUUUUAAAAAUGAAUGGCUACUUUACACGUUUAACUAGGGUUUUACUAUAUAUGUGUACAUAUGUAUAUAUAUAUAUA,62.5
GUUCGGCUUUGGGAUCAUGCCACAAUGACAGAAGUGAAAUCUCUGAAUUUUAAUAUGUCUGUUAGUAGCAUGGAGUAUAUUCCUGAAGGAGAGAUUUUGGUUAUUACUUAUGGACGAUCU,0.26
GAUAAGAAAAGCUUGUUGGAGACCCGCUUGCACAUCACUGGUAGAGACCUGAGGUGUCAAAUAGCUGAAACUUUCGGAUUUCAAGAAAAUUAUAUCAAGAUCGUAAUAAAUAAGAAACAG,0.656
CUCGGCACUGGUACCCUUUACAUCGCGGAGAGCCGCCUGUCCUGGUUAGAUGGUUCGGGAUUAGGAUUCUCACUGGAAUACCCCACCAUUAGUUUACAUGCGGUGUCCAGGGAUCCAAAC,0.559
GCGGCAGAAUCAUGGAGGACAUAAUGCAGCUCCCCAAGUCGCGCAUCAACGCCAGCAUGCUAGCUCAGUAUAUCGACCGGCCCGUGUGCUUCGUGGGGAAGCUGGAAAAGAUUCAUCCCA,0.0919
AACAGAUUGUCUUUAAGCAUUCCAAGCGAGAAUGCUGGGGUGAUCAUAAUUACCCACGUGCCUUCUGACUGAGCUUUAAUGCUGUUCCAUGUUACAUCUUUCCUUCACUCCAGAAUUGUU,0.133
GGGACUGAUUCAUCCCAAGGACAGGCAACCCCAUUUGAUGCCUGGACUGAUGACAGUAUGGAAGGGCCUAGUCAAAAUGUUGAAGCUGAGUCAAUUCAGGAUGCCAUGCAUAUGGCAGAG,0.241
CCUGCUCAGAUCACCAUGAAAGUAAUCCAAGGCCUAUAUAGUGGGGUCACCACAGUGGAACUGGACACCCUGGCUGCUGAAACAGCUGCGACCUUGACCACGAAGCACCCUGACUAUGCC,0.126
UACUGCUUUCAACUUAAUAAAUCACUGAGGCAUCUCUACUGUUCUGUGAGCAUCAGGACUGUAGCGCUGUGUCACCACAUGAGAGUUCAGAAGCAGCCUUUCUGUGGAGGGUGGGAAUGA,0.131
UGGCGCCUCCCAUUUUUACUCGUGUUUUUAAGUGUAUUUUUAUAAGAUACAUGUAUUUACAAUUGAGCUUUUGUUACUAUAAUACUGAAUGCUACUGGAGAUUAUGAAAAAUGUUUCAAU,0.22
CAGUCCCCGUGUCCCAGUGCAGGACGAUGUGAACAAAAACUCAAAGCGGACCCUCUAUUGUAGUUCUUGAUUCUCGAGUGCCAUUAUUAUUGUUUGUCUUUUUUUUUUUUUUUUUAAAGA,1.19

# Sample 2
# Target: Centromere-binding protein 1, full length, N-terminal tag (CBF1, Saccharomyces cerevisiae, UniProt P17106, residues 1-351)
# Chain of UniProt P17106 (whole entry, looked up): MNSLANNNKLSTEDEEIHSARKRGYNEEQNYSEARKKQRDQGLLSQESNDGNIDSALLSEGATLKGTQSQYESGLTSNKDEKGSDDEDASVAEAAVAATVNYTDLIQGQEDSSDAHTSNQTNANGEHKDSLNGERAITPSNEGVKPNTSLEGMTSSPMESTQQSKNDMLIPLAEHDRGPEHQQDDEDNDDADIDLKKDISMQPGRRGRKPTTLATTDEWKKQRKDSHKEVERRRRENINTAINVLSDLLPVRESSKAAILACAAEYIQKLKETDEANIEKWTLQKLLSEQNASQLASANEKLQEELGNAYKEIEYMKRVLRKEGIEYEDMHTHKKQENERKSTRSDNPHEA
# Method: protein-binding microarray
# Molecule type: double-stranded DNA, one strand shown
# Medium: in vitro
# Concentration: 0.8 µM
# Setting: whole 60-bp probe, no competitor
# Direction: higher = stronger binding
# Constant ends, left off below: … GTCTTGATTCGCTTGACGCTGCTG
Strand,fluorescence intensity [a.u.]
CTAGTTAAGTGTAGATAGGTGACGCTAGAGCCGTTC,502
GAAATACTTTATTGTCATGAGACCACTCAACAGTAG,906
CTATGTCATTCACGACATGTGAACAAATAAAAATTC,1570
CTACTCTTTACACCGTACGTGATAATACACTAATTC,605
CTAGGTTCATCTTCTGATGTTATGTCGAGAGCTTTC,532
CTATAACTTGACTCGCACATGCCTGCTGGGTCATTC,579
CTAGAGACATGATCGGTCGTGATTATCTTGTTGTTC,594
GAAATCAGCTTGATTCACGGGATGTTACTTATCTAG,626
TGTACGAAGCTATTGCGCACTCTTATAGTAGTTAGG,501
CTATAAACGCATTGCTTCGTGGTCAGTAGTAACTTC,551
CTAAATAGAAATAATCATATGATGATATAGAAATTC,718
GAAACGCGCTGCAGGAACGTGACTTCCAAAAAATAG,3350
GAATGCTGTTGGGAAAACGTGCCTTCTAATCTCTAG,793
CCTAACTACTATACATGCGTGAGATAGCTTCGTACA,521
GAATTTTGAAAACATGATGATATACTAATAATTTAG,557
GAATGAACGGTTGGTCAGGAGAACGAAGAAGTTTAG,559
CTACATACTTTCATTGTCGTGATTCTTTAGGCATTC,611
GAACAGCGCGTATGTGGTGTGGTGTGTGTTTTGTAG,567
CCTAACTACTATACTATCGTGGGATAGCTTCGTACA,502
GAACCTTATTTTTATCCCGTGTTATATTTAATCTAG,1080
CTAGTCCGGCATCACGTGGTTATGATGTAGTATTTC,10800
GAACCAGATCTACAGCTGATGAAATGTGGCTGATAG,516
CTAGCGATGAATTTTTGGGTGATGAATGAAACATTC,497
CTAGGTTGCTTCAGGCATGTGCCTGGGAAATGATTC,875
CCTAACTACTATACTCACCCCGCATAGCTTCGTACA,507

# Sample 3
# Target: Sal-like protein 4, full length isoform A (SALL4, Homo sapiens, UniProt Q9UJQ4, residues 1-1053)
# Chain of UniProt Q9UJQ4 (whole entry, looked up): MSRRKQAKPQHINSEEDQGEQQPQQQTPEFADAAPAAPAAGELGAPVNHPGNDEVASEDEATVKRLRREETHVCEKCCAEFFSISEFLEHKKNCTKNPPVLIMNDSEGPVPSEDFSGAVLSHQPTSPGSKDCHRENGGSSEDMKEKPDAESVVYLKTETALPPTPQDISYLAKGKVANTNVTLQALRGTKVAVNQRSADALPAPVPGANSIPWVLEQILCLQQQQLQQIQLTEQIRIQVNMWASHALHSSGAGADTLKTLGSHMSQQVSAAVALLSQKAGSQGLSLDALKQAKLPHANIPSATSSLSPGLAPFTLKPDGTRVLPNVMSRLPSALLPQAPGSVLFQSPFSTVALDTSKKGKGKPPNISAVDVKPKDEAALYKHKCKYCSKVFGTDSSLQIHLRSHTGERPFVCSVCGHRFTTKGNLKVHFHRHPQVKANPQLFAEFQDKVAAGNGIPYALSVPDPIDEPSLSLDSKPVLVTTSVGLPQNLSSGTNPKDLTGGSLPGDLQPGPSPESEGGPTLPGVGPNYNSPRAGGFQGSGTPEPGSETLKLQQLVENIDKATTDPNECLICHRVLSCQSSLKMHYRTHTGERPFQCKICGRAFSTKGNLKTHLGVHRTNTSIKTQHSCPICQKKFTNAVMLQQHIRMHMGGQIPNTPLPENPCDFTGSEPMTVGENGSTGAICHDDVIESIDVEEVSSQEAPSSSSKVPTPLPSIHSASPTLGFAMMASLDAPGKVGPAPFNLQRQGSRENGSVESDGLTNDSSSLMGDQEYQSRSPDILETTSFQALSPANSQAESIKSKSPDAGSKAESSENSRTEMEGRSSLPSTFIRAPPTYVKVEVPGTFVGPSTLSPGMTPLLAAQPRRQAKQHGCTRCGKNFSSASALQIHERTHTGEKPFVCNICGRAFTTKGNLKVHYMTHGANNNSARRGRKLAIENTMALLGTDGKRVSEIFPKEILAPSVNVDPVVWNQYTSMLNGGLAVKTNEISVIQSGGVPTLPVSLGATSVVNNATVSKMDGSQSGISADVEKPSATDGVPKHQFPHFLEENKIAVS
# Method: universal PBM
# Molecule type: double-stranded DNA, one strand shown
# Medium: in vitro
# Concentration: 600 nM
# Setting: 8-mer, flanks averaged, mean of replicates
# Direction: higher = stronger binding
Strand,E-score
AAGTTTTG,0.119
ACACGAAG,0.0241
CATTCCTA,0.094
ACGATGTA,0.191
CCGCCCGG,-0.389
ACCGCAGC,-0.312
AAGAGACC,-0.204
AGGCGCAC,-0.245
AACCCACT,-0.0141
CGTTCCAG,-0.0506
AGTGAGCA,0.0161
CACGTGAA,0.0357
GCATCAGA,0.125
TATAACAA,0.349
ATCACCGG,-0.212
CGTTTCTA,0.0918
CAGCCATA,-0.0138
CGACGACG,-0.131

# Sample 4
# Target: RNA binding protein fox-1 homolog 2, RRM domain, GST-SBP tag (RBFOX2, Homo sapiens, UniProt O43251-10, residues 100-194)
# Method: RNA Bind-n-Seq
# Molecule type: RNA
# Medium: in vitro
# Concentration: 365 nM
# Setting: natural RNA segment, single round, ends assumed
# Reference: no-protein control
# Direction: higher = stronger binding
# Constant ends, left off below: GGGAGUUCUACAGUCCGACGAUC … UGGAAUUCUCGGGUGCCAA
# Residues (chain): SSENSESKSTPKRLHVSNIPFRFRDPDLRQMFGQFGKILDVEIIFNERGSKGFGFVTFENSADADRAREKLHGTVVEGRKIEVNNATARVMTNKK
Strand,RBNS enrichment (R)
UUUGUUAAAAUGCUAUUUUUAAAACCAUAUGAAGGUAGGAUAAUUAAUUACAAGUCCACAUCAUGAGACAAACUGAAGUAACUUAGGCAAAACAGGUAAAACAGUCAUAG,0.304
CCCUGAGUUGUGUUGAAGUCCCCUGGACAAUGAGCAGGGGUGGCAGAGGACAGCAGCAGCCACUGCCCUCACCUUUAACCCCUUGCCUUGCCUCCCAGGGAUUUGUGAGC,0.463
AGUACUGCCUUGAAUUUUGGUUUAAAACCUCUCUAGUUUCAAUGACAAGUAACAACUCAAAUAAUUCCAUAUUGUUUGAGGAAGAGGCCAUAAUCCUUCUGAAUUGUUGG,1.1
UCUACAAUAUUAAAGAUCUAAAUACAAAGGAUAUAAUACAGUCUUGAAUCUAAAGUAAUUUGCUAACUAUUUUGAUUCUUCAGAGAACUACUAAUAAAAAUCUAAAAGGU,0.387
ACGGGCCCAAUAUUUUACUAACCCACUCUGUAGGUUGUCAGUGUUCCAUUUUGAAAGUGUCCCCGUGGUUGCACACUUCAGAGGACAGGGACUCUGUGUGUCUAAGAAGG,0.932
AACAUGGGUGAUUACUUGCAGCCAUCCCAGGUGUUUUAGUUUUGCCAAGCUGACUGUGGUAUGUAGCCACUUCAGGGGUUGCGCUUCUCACUAGGUUGGCGGUACAUGUG,0.383
AAUGAACAUAGCCAGUUCCUACCCAACCCUGCCCUGCCUUUUUUUUUUUUUUUAAAGUGUGGUCCUGUGCUUUCAAAGUAAGUACAGUUCUCUAUGACCAGGCACUUAAA,1.23
GCAGGACCUCACUUGCCAGUAGAACCCACAGAACAGGUAUGGCCUAGGAUGCUGUCAGCCUGAGAGUGAAAGUGGGCACUCAUUUCUCCUGGUUUUUGAAGAGCCUGUUA,6.49
CCCGCUGUCAGUCUGUGUCCUCCACGUGCUUAUUUCCUGUGGUGAGAGCAGUUGUGGUGUUUGUAUACCUUGUGCCUUAUGAUCAAGGUGGGCCUUGGAGGAGGGCGGGA,1.39
GUCCUAUGACAGAGAAUGACUUAGAGCCACAGGCAUGAGUCCUUGAUAGGCAGGACUGAAAAACCAAAGAGCACAUGCACUGAGCUAUCUUGAAGUCCGUUAUAUGCAGA,2.76
AAUGUAACUAUUUAGCCCUGGAUUAUACAUACUGUCCAAUUUUCAUUAAAUUUUUGUCUUAUAACUAUUGAAGUUUGGUUAAUAUCUGCUUUACAAAAUUGGUGGGGGUA,0.763
CGUGCACCACCACCACCAGACUUUUUGUUUUGUUUCUUAAGUCAGAGUUUCUCUGUGUAGCUUUGGUUGUCCUGGAACUCACUCUGUAGACCAGGCCAGCCUUGAACUAA,0.572

# A few entries again (sample 3):
Strand,E-score
AGTGAGCA,0.0161
ACACGAAG,0.0241
AACCCACT,-0.0141
GCATCAGA,0.125
CACGTGAA,0.0357
ACGATGTA,0.191
CAGCCATA,-0.0138
